Results collected from several papers.
Protocols differ between the studies behind these lines. Several values in a cell are separate wells, animals, samples, runs or records. Numbers after ± are the reported error.

Structure (SMILES) | test | test system | setting | Cmax
O=C1c2ccncc2C(=O)c2c1[nH]c1ccccc21 |  | Sprague-Dawley rat, male, plasma | intravenous, 5 mg/kg | 2330 ± 884 nM
N=C(N)NCCNC(=O)C1(Nc2ccccc2)CCN(Cc2ccccc2)CC1 |  | male Sprague-Dawley rats, plasma | oral, 50 mg/kg | 424 ± 52.3 ng/mL
CCOCc1nc(O)c(-c2nnc(Cc3ccc(Cl)cn3)o2)c(O)c1-c1c(OC)cccc1OC |  | rat, post surgery, plasma | oral, 0.2 mg/kg once daily, day 6 post surgery | 310 nM
CNC(=O)c1cccc(-c2ccc(O[C@H]3O[C@H](CO)[C@@H](O)[C@H](O)[C@@H]3O)c(C)c2)c1 |  | male Sprague-Dawley rat, plasma | intravenous, 3 mg/kg, group mean | 1590 ng/mL
C=CC(=O)N1CCC[C@@H](n2nc(-c3ccc(Oc4ccccc4)cc3)c3c(N)ncnc32)C1 |  | Wistar rat, male, small intestine | oral, 50 mg/kg | 664 ± 33.2 ng/g
CCc1cc(C(=O)NC)c2nccc(N3CCc4c(cc(Cn5ccnc5)cc4-c4cn(C)nc4C(F)(F)F)C3=O)c2c1 |  | Sprague Dawley rat, male, plasma | oral, 50 mg/kg once daily, 7 days, toxicokinetic satellite group | 4940 ng/mL
COC(=O)C1=CO[C@@H](O[C@@H]2O[C@H](CO)[C@@H](O)[C@H](O)[C@H]2O)[C@@H]2C(CO)=CC[C@H]12 |  | rat, plasma | oral, 500 mg/kg Eu + 217 mg/kg Pc extract, dosed as combined Eu and Pc extracts | 32.8 ± 42.7 ng/mL
CCCc1c(-c2ccc(O)cc2)nn(-c2ccc(O)cc2)c1-c1ccc(O)cc1 | measured: aglycone | rat, Long-Evans, female, serum | subcutaneous, 2 mg/kg single dose | 350 ± 40 nM
CN(C(=O)n1cnc(-c2ccc[n+]([O-])c2)c1)C1CCCCC1 |  | Wistar Han rat, plasma | oral, 10 mg/kg, 1 h | 4270 ± 352 ng/mL
CCCCN1CCN(C(C)C(=O)Nc2c(C)csc2C(=O)OC)CC1 (stereo not drawn) |  | rat (Sprague-Dawley, male), plasma | subcutaneous, 62.3 mmol/L | 2540 ng/mL
CCn1cc(Cl)c2c(Cc3ccc(C(F)(F)F)nc3)n(C)nc2c1=O |  | Sprague-Dawley rat, male | oral, 3 mg/kg, suspension | 2270 nM
Cc1cccc(CNC(=O)c2cn(CCNC(=O)c3ccccc3Sc3c([N+](=O)[O-])ncn3C)c3cc4c(cc3c2=O)OC(F)(F)O4)n1 |  | Sprague-Dawley rat, male, plasma | intramuscular, 30 mg/kg of parent compound | 75 ± 33.5 ng/mL
CC(C)c1nc(N(C)S(C)(=O)=O)nc(-c2ccc(F)cc2)c1/C=C/[C@@H](O)C[C@@H](O)CC(=O)O |  | Wistar albino rat, both sexes, plasma | oral, 20 mg/kg | 599 ng/mL and 405 ng/mL and 921 ng/mL
C1=C/COCc2cc(ccc2OCCN2CCCC2)Nc2nccc(n2)-c2cccc(c2)COC/1 | LC-MS/MS | Sprague-Dawley rat, male, plasma | oral, 36 mg/kg, added: isavuconazole 20 mg/kg oral | 1320 ± 994 ng/mL
CSc1ccccc1C(=O)NCCn1cc(C(=O)NCc2cccc(C)n2)c(=O)c2cc3c(cc21)OC(F)(F)O3 |  | Sprague-Dawley rat, male, whole blood | intramuscular, 3 mg/kg of parent drug | 3.57 ± 1.12 ng/mL
COc1cc([C@H]2OC[C@H]3[C@@H]2CO[C@@H]3c2ccc(O[C@@H]3O[C@H](CO)[C@@H](O)[C@H](O)[C@H]3O)c(OC)c2)ccc1O[C@@H]1O[C@H](CO)[C@@H](O)[C@H](O)[C@H]1O |  | rat, plasma | oral, 500 mg/kg Eu + 217 mg/kg Pc extract, dosed as combined Eu and Pc extracts | 26.3 ± 21.4 ng/mL
Cn1c(C(F)(F)F)cc(=O)n(-c2cc(Oc3cccnc3OCC(=O)O)c(Cl)cc2F)c1=O |  | Crl:CD(SD) rats, female, plasma | oral diet, 300 ppm in diet, day 1, 90-day toxicity study | 349 ng/mL
CCCCCCCOc1ccc(CCC(N)(CO)CO)cc1C(F)(F)F.Cl |  | male Sprague-Dawley rat, plasma | oral, 1 mg/kg, single dose | 4.07 ng/mL
O=C(O)CCSC[C@H]1O[C@@H]2O[C@H]3[C@H](O)[C@@H](O)[C@@H](O[C@H]4[C@H](O)[C@@H](O)[C@@H](O[C@H]5[C@H](O)[C@@H](O)[C@@H](O[C@H]6[C@H](O)[C@@H](O)[C@@H](O[C@H]7[C@H](O)[C@@H](O)[C@@H](O[C@H]8[C@H](O)[C@@H](O)[C@@H](O[C@H]9[C@H](O)[C@@H](O)[C@@H](O[C@H]1[C@H](O)[C@H]2O)O[C@@H]9CSCCC(=O)O)O[C@@H]8CSCCC(=O)O)O[C@@H]7CSCCC(=O)O)O[C@@H]6CSCCC(=O)O)O[C@@H]5CSCCC(=O)O)O[C@@H]4CSCCC(=O)O)O[C@@H]3CSCCC(=O)O |  | Sprague Dawley rats, plasma | intranasal, 5 mg/kg, added: rocuronium bromide IV | 458 ng/mL
CCONC(=O)N1CCC[C@H](C(=O)NCc2nc(-c3ccc(C#N)cc3)cs2)C1 |  | Sprague-Dawley rat, male, plasma | oral, 3 mg/kg | 300 nM
Cc1nc(-c2cnc(NC(C)C)n(C)c2=O)ccc1Oc1ccnc(-c2cnn(C)c2)c1 |  | Sprague-Dawley rat, male, plasma | oral, 10 mg/kg, crossover study | 16100 ng/mL
O=C(O)c1cc(O)c(O)c(O)c1 |  | rat, plasma | oral, 500 mg/kg extract, extract | 1180 ± 120 ng/mL
CN1CCC[C@H](CN2c3ccccc3Sc3ccccc32)C1.Cl |  | Wistar rat female, eye | oral, 16 mg/kg | 961 ng/g
CCOCC(=O)N1CCC[C@H](C(=O)NCc2nc(-c3ccc(C#N)nc3)cs2)C1 |  | Sprague-Dawley rat, male, plasma | oral, 3 mg/kg | 12000 nM
Cc1ccc(S(=O)(=O)n2cc3c4c2C(=O)C(NCc2ccc(Cl)cc2)=CC4=NCC3)cc1 |  | Sprague-Dawley rat, plasma | intravenous, 5 mg/kg | 1340 ng/mL and 1270 ng/mL and 1070 ng/mL
Nc1nc(O)c2ncn(COC(CO)CO)c2n1 |  | Sprague-Dawley rat, male | oral, 10 mg/kg | 220 ± 110 ng/mL
Cc1cccc(CNC(=O)c2cn(CCNC(=O)c3ccccc3S)c3cc4c(cc3c2=O)OC(F)(F)O4)n1 |  | Sprague-Dawley rat, male, plasma | intramuscular, 10 mg/kg of parent drug | 7.94 ± 1.29 ng/mL

Some of these lines once more:
Structure (SMILES) | test | test system | setting | Cmax
CCOCC(=O)N1CCC[C@H](C(=O)NCc2nc(-c3ccc(C#N)nc3)cs2)C1 |  | Sprague-Dawley rat, male, plasma | oral, 3 mg/kg | 12000 nM
Cc1ccc(S(=O)(=O)n2cc3c4c2C(=O)C(NCc2ccc(Cl)cc2)=CC4=NCC3)cc1 |  | Sprague-Dawley rat, plasma | intravenous, 5 mg/kg | 1340 ng/mL and 1270 ng/mL and 1070 ng/mL
Nc1nc(O)c2ncn(COC(CO)CO)c2n1 |  | Sprague-Dawley rat, male | oral, 10 mg/kg | 220 ± 110 ng/mL
Cc1cccc(CNC(=O)c2cn(CCNC(=O)c3ccccc3S)c3cc4c(cc3c2=O)OC(F)(F)O4)n1 |  | Sprague-Dawley rat, male, plasma | intramuscular, 10 mg/kg of parent drug | 7.94 ± 1.29 ng/mL
